Measurements pooled from the literature.
Numbered parts are unrelated; each lists some results of a single study. Changes are numbered by the printed parent chain.

Study 1 — technique: universal PBM; molecule type: double-stranded DNA, one strand shown; matrix: in vitro; tested at: not given; reading: higher = stronger binding; quantity: E-score
Target: Sal-like protein 4, full length isoform B (SALL4, Homo sapiens, UniProt Q9UJQ4-2, residues 1-616)
Setting: 8-mer, flanks averaged, mean of replicates
Construct (chain): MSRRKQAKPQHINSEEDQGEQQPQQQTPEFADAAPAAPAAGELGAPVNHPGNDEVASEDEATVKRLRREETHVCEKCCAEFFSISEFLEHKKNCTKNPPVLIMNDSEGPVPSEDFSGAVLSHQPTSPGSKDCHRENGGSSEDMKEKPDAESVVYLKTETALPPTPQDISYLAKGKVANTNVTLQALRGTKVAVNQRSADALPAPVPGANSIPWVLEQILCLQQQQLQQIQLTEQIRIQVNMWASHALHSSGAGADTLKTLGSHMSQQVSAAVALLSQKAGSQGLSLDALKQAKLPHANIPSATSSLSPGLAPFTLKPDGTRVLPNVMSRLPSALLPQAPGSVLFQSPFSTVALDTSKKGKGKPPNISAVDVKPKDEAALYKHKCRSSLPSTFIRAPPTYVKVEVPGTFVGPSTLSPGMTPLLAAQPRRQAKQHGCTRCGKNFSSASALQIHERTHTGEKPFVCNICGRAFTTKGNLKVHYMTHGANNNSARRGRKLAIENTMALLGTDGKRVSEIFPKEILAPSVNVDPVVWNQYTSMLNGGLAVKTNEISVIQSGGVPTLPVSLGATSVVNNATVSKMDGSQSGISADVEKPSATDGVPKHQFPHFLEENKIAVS
AACGGTGT: -0.0554
CCTGAAAG: 0.0391
GGAGAAAC: -0.0959
GTCTACTA: 0.129
TCCGAAAA: -0.0436
ATTTCAGG: 0.0922
CTTACGCC: 0.0275
GCTTTCAC: -0.0538
CAGGTTAC: -0.0637

Study 2 — target: CCNA1, cyclin fold, Cln2 fusion (human); technique: yeast growth competition, sequencing; matrix: yeast; setting: weak parent motif; reference: not given; reading: higher = stronger binding; quantity: normalised enrichment score
Parent: RBL1 docking peptide (human); GSAKRRLFGEDPP; partner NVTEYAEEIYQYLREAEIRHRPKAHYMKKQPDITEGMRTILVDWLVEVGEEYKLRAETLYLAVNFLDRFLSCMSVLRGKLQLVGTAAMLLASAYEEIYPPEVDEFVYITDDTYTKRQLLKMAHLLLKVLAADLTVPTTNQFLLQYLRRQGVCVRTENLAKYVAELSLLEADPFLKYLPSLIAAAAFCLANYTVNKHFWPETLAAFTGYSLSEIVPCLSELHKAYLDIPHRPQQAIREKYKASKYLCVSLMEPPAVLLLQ
GSAKRRLFWEDPP [G9W]: 0.577
GWAKRRLFGEDPP [S2W]: 0.241
GDAKRRLFGEDPP [S2D]: 0.181
GSAKRRLFGEWPP [D11W]: 0.428
QSAKRRLFGEDPP [G1Q]: 0.501
GSAKRRLFLEDPP [G9L]: 0.762
GSAKRRLFGEDCP [P12C]: 0.545

Study 3 — technique: RNA Bind-n-Seq; molecule type: RNA; matrix: in vitro; tested at: 1 µM; setting: whole 134-nt RNA, ends assumed; together with: 150 mM KCl; reference: input library; reading: higher = stronger binding; quantity: log2 enrichment
Target: Ras GTPase-activating protein-binding protein 1, C-terminal RGG region (G3BP1, Homo sapiens, UniProt Q13283)
Chain of UniProt Q13283 (whole entry, looked up): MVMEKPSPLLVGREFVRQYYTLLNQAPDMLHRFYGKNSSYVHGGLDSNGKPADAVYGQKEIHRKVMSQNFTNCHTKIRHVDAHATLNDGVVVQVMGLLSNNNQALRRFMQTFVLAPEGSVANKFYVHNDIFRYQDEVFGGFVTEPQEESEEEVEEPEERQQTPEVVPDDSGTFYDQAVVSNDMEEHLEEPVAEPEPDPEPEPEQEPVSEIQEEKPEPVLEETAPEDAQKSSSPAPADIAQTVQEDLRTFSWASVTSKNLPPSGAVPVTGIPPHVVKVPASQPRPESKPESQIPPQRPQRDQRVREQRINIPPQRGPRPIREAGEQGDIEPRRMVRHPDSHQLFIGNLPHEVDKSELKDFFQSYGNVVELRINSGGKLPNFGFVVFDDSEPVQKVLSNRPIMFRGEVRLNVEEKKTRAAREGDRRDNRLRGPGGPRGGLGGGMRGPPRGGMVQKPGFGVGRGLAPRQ
Shared flanks, not repeated: GGGAGUUCUACAGUCCGACGAUC … UGGAAUUCUCGGGUGUCAAGG
CCUGUGCUACACAUCGUAUGUACCGAAUCGGGGUUUUUUUGGGGUUUUUGGGGUUUGGGGAAAGUAUUAUGUUACGCCGUUCGGAUCUGC: 0.0531
CUCAAGUCCUGUGCUACACAUCGUAUGUACCGAAUCGGGGAGGGGAGGGGAGGGAAAGUAUUAUGUUACGCCGUUCGGAUCUGCACUUCC: 2.7
AGUCCUGUGCUACACAUCGUAUGUACCGAAUCGGGGUUUUGGGGUUUUGGUUUUGGGGAAAGUAUUAUGUUACGCCGUUCGGAUCUGCAC: -0.368
ACCAUGCAGGUGGGCAUCUUUGGGAAGUGGGGCAAGGGGGGGAUAGGGAGGGGGGUAACACUUUGGGAACAGGUGGUCGCAGGUCGUUUC: 2.28
CAAGUCCUGUGCUACACAUCGUAUGUACCGAAUCGGGUUUGGGAAAAAGGGUGGGAAAGUAUUAUGUUACGCCGUUCGGAUCUGCACUUC: 2.09
CCUGUGCUACACAUCGUAUGUACCGAAUCAAAUUUUUUUAAACCCCCCCAAACCCCCAAAAAAGUAUUAUGUUACGCCGUUCGGAUCUGC: -1.13
UCCCAAUGCUCGGAGGAAGCCCAAGGGCAGCCCUCGUGUACCUGAUGCCAAGAAGCCUAAACCCAAGAAAGUAGCUCCCCUGAAAAUCAA: -0.441

Single results of other studies
PhoQ, residues 284 288 289 292 302 303 ASASEQ
fold induction (PhoP, residues 12 14 15 18 19 NHFIF (Escherichia coli, UniProt P23836); Sort-seq, refers to: YFP reporter; E. coli; PhoQ-PhoP variant library, together with: 10 µM Mg2+; reference: high Mg2+ state, higher = stronger signaling): 10.1

Some of these lines once more (single results of other studies):
PhoQ, residues 284 288 289 292 302 303 ASASEQ
fold induction (PhoP, residues 12 14 15 18 19 NHFIF (Escherichia coli, UniProt P23836); Sort-seq, refers to: YFP reporter; E. coli; PhoQ-PhoP variant library, together with: 10 µM Mg2+; reference: high Mg2+ state, higher = stronger signaling): 10.1
